Results pooled from the literature.
Every numbered part comes from another study and shows a few of its results, in no order. Substitutions count along the parent as printed.
Sequence of UniProt P19784 (whole entry, looked up): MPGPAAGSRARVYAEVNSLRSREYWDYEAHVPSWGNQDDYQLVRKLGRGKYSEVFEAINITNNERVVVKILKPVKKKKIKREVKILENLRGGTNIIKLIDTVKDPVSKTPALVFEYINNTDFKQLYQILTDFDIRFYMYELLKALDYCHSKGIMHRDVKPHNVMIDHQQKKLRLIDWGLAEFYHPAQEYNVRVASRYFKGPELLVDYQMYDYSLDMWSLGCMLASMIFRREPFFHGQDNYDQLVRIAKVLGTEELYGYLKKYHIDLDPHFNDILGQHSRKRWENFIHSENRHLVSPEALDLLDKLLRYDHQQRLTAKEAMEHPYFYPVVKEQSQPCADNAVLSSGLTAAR

Study 1 — effect on: peptide-MHC binding; form: peptide; tested at: concentration not given
Target: HLA class I histocompatibility antigen, A alpha chain, allele A*26:03 (Homo sapiens, UniProt P04439)
Sequence	binding
SYINRTGTF	inactive
SFSFGGFTF	inactive
GLYRLNFRR	inactive
RVYNNTARY	inactive
NVHRSQFAQ	inactive
RIGGVLIFR	inactive
YQYIFLSFF	inactive
YHRPLTGYM	inactive

Study 2 — target: UBE2D2 UBC core domain (UniProt P62837); method: yeast two-hybrid; sample: yeast; setting: mostly zero background; baseline: not given; direction: higher = stronger interaction
Sequence of UniProt P62837 (whole entry, looked up): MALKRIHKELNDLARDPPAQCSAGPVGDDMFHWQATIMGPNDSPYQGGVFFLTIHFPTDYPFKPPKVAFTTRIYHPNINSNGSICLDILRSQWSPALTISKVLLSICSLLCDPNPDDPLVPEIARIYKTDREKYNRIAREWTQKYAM
B1: TRIM47 RING domain (UniProt Q96LD4); chain MDGSGPFSCPICLEPLREPVTLPCGHNFCLACLGALWPHRGASGAGGPGGAARCPLCQEPFPDGLQLR
B2: TRIM2 RING domain (UniProt Q9C040); chain VRQIDKQFLICSICLERYKNPKVLPCLHTFCERCLQNYIPAHSLTLSCPVCRQTSILPEKGV
B3: RMND5B RING domain (UniProt Q96G75); chain MKCWYHSVFACPILRQQTSDSNPPIKLICGHVISRDALNKLINGGKLKCPYCPMEQNPADGK
B4: PJA2 RING domain (UniProt O43164); chain DHTAIGQEQCCPICCSEYIKDDIATELPCHHFFHKPCVSIWLQKSGTCPVCRRHFPPAVIEA
B5: RNF7 RING domain (UniProt Q9UBF6); chain AICRVQVMDACLRCQAENKQEDCVVVWGECNHSFHNCCMSLWVKQNNRCPLCQQDWVVQRIGK
B6: TRIM68 RING domain (UniProt Q6AZZ1); chain LVEAIVEEVACPICMTFLREPMSIDCGHSFCHSCLSGLWEIPGESQNWGYTCPLCRAPVQPRNLRP
Sequence	lacZ reporter activity
B1 (TRIM47 RING domain)	0
B2 (TRIM2 RING domain)	0
B3 (RMND5B RING domain)	10900
AAQLLEEKLTCAICLGLYQDPVTLPCGHNFCGACIRDWWDRCGKACPECREPFPDGAELR (TRIM65 RING domain (UniProt Q6PJ69))	0
B4 (PJA2 RING domain)	2180
B5 (RNF7 RING domain)	0
B6 (TRIM68 RING domain)	0
GSEEEEIPFRCFICRQAFQNPVVTKCRHYFCESCALEHFRATPRCYICDQPTGGIFNPA (RNF113B RING domain (UniProt Q8IZP6))	0

Study 3 — target: CCNA1, cyclin fold, Cln2 fusion (human); method: yeast growth competition, sequencing; sample: yeast; setting: strong parent motif; baseline: not given; direction: higher = stronger binding
Starting sequence: viral docking peptide; TSVRRALFTGGSD; partner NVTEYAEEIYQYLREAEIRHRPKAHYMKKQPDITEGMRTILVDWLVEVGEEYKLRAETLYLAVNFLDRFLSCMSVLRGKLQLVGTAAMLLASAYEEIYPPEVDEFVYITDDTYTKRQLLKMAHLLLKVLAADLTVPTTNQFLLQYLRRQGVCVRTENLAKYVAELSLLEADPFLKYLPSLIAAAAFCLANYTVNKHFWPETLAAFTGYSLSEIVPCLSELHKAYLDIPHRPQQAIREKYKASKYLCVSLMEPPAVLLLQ
Variant	normalised enrichment score
R4A	0.359
R5T	-0.131
T9D	1.01
S2K	1.47
R4F	-0.231
L7V	0.102
A6R	1.11
F8G	-0.0248

Single results of other studies
Structure (SMILES)	target	assay	conditions	how to read	endpoint	value
CC(C)(C)c1cc(C=C(C#N)C#N)cc(Br)c1O	Casein kinase II subunit alpha' (CSNK2A2, Homo sapiens, UniProt P19784)	enzyme activity, inhibitor	0.5 µM	baseline: control	remaining activity	94.5%

Repeated from above (study 1):
Sequence	binding
NVHRSQFAQ	inactive
RIGGVLIFR	inactive
YQYIFLSFF	inactive
YHRPLTGYM	inactive
